Measurements pooled from the literature.
Each numbered part is a random draw from the data of one study; scales do not carry over between parts. Changes are numbered by the printed parent chain.

Sample 1
Target: RNA binding protein fox-1 homolog 2, RRM domain, GST-SBP tag (RBFOX2, Homo sapiens, UniProt O43251-10, residues 100-194)
Method: RNA Bind-n-Seq
Form: RNA
Matrix: in vitro
Tested at: 365 nM
Notes: natural RNA segment, single round, ends assumed
Baseline: no-protein control
Direction: higher = stronger binding
Construct (chain): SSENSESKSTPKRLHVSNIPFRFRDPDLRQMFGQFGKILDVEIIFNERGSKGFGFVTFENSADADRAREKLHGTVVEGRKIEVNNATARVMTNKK
For `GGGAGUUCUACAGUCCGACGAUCGGGAAAGCCAAGAAUAAAUGUCACUCCAGAACACAUUUUUUUUUAGCAAUAAAAUGGUGUCAAAUGUAUUGACCAUGGCCCUAGAGUCUGAGUAAUACCAGGUGUGUUGUUGGAAUUCUCGGGUGCCAA`, “RBNS enrichment (R)” read 0.327.
Under “RBNS enrichment (R)”, `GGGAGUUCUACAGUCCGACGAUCUAAGCUACAAUGCCUAGAAGAGAAUGAGCGGACAGAUUGAAAGAGCUUUGAAAAGUAUAAGGUGCCAUCCACAUAACCUGGUGUUCACGAGAACACACUAAAGGACUCCUUGGAAUUCUCGGGUGCCAA` is recorded as 0.909.
`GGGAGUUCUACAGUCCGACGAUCCAUUCCUAUCCUUCCUGGUACUGCAGUCAACCAAAGAUGGCAUGACUUACCUGCGCAGAUCUGGAAGCCUUGAACUCGGAGUGCUGACUCUGCUACAUGGUACAGCUACCUGGAAUUCUCGGGUGCCAA` — result for “RBNS enrichment (R)”: 0.813.
For `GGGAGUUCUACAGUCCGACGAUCGGCAGGAGGCCUGGGUCUCACCAGCAGGAGUGCGUGCAAGGUGGGAGGGUCGGUCCAUUACAGACCCACAUCCUGGAGCACCCCCAUCUCCAUGUGUGAAGUAGCUUCCUUGGAAUUCUCGGGUGCCAA`, “RBNS enrichment (R)” read 0.325.
`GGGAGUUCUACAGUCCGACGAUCGCUUCAAACUUUAUUGCUUCGAUUUUUGUGGCCCUAUAUUUAGUAUUAGCACACCUUGGUUUUGAGAAAAAAACAGGGCUUUGUUUUUUUAAAUAAUUACUAGCAACUCUUGGAAUUCUCGGGUGCCAA`: “RBNS enrichment (R)” 0.457.
`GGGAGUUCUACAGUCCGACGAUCACUCUCCUUUGAUAUUAUGUGGCUUUUAUUUCAGUGCCAUACAUGUUAUUGUUUUCAACCUAGAAACCUUUAUCCCUGCUUAUCUGAAACUUCCCAACUUCCCUGUUCUUUGGAAUUCUCGGGUGCCAA`: “RBNS enrichment (R)” 0.875.
For `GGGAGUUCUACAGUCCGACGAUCAGCAGAAAAGAAGUGAGAACAUCUUGAUUCCCCUUUCUUUUACUUGAUGGUGUUUAUGAACAUGCCGUAGUGCCUUUAUGGCCAGUUUGAGUCCUGCCUACUUUGACUUUUGGAAUUCUCGGGUGCCAA`, “RBNS enrichment (R)” read 0.33.
For `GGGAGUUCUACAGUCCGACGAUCAUAGUAGAUGUGAGAACUUGGGUUUGGUCCUCAGGUAACAGAGAGGGUGAAGGGGAGAGGAGGAGCUAGUAUUAGCCAAAGUGAUAGAAAACCUGAUUUUCAUCUCGUACUGGAAUUCUCGGGUGCCAA`, “RBNS enrichment (R)” read 0.74.
For `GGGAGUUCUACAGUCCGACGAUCUCUAACUGAUCACAUACGCAGGAGUGGCCAUGGUCGAGAGGGCCUGACACACUUGGCCCUCGAUGUAUGAAAUCUUGACCAGAAUUAAAAGCAAAGACGUCUCUCCUGUCUGGAAUUCUCGGGUGCCAA`, “RBNS enrichment (R)” read 0.538.
Under “RBNS enrichment (R)”, `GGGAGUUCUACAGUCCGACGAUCUCAUCCCAAAUACUUAACCUCAUUCUUUAGUAAUGGUGUAGGUGGAUUGGCUCAGGUUUAAUACAUCUGUUAUUAUAUAAUCUAGCAAAAGUUGGAUUAUAGAUUAUAACUGGAAUUCUCGGGUGCCAA` is recorded as 0.222.
`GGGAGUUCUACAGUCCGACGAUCGGAAUUCCUUCAUUUUCUAUAAAAAUGUCAAAAAAAAGCAAUGCUACCUCCAGCCUUAGGUCUUUUGAACUGCCCACUGUUGAGAUGAGUUUUUCUUUUGCCAUACAAAGUGGAAUUCUCGGGUGCCAA`: “RBNS enrichment (R)” 0.48.
`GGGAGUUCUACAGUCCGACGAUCCCCUUGUUCCAAAUGAAGACGGCAUCACGAAGCAGCUCCAAAAGGAAAAGCUUGGGCGGUGCCCAGCGUGCCCGCUGCCCAUCGACGUCUGUCCUGGGGACGUGGAGGGUUGGAAUUCUCGGGUGCCAA`: “RBNS enrichment (R)” 0.414.

Sample 2
Target: ABI1, truncated, D143A, DHFR fusion (Arabidopsis thaliana)
Method: DHFR PCA, deep sequencing
Matrix: yeast
Notes: methotrexate growth selection, single substitutions
Together with: (+)-ABA 0 µM
Baseline: wild-type fitted maximum
Direction: higher = stronger binding
Starting sequence: PYL1, truncated, DHFR fusion (Arabidopsis thaliana); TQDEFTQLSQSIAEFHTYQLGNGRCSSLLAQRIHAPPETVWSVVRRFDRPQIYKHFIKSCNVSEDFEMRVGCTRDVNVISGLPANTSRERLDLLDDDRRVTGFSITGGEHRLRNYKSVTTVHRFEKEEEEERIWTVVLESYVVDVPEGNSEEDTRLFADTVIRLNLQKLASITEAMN; partner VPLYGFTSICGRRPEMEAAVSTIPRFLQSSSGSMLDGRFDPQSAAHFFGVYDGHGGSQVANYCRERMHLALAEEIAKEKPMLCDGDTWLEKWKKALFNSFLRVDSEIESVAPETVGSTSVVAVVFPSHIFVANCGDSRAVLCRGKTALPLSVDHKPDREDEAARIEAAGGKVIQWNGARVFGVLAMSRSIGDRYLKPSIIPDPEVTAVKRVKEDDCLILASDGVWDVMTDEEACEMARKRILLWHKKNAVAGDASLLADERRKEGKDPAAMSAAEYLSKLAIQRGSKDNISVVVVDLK
`Y141M`: “relative binding score” -9.99%.
Under “relative binding score”, `I12A` is recorded as 2.88%.
`R155K` — result for “relative binding score”: 46.2%.
`A35R`: “relative binding score” 0.71%.
Under “relative binding score”, `H55D` is recorded as 1.16%.
For `D95A`, “relative binding score” read -2.2%.
`R111H`: “relative binding score” 5.76%.
`F124Q` — result for “relative binding score”: 7.64%.
Under “relative binding score”, `F157W` is recorded as 32.9%.
`W134F`: “relative binding score” 17.3%.
Under “relative binding score”, `T160S` is recorded as 6.29%.
`T17Y`: “relative binding score” -2.95%.
For `R49V`, “relative binding score” read -0.63%.
`W41A` — result for “relative binding score”: -0.637%.
`F66D` — result for “relative binding score”: 3.76%.
For `Y115C`, “relative binding score” read 6.67%.
For `T86C`, “relative binding score” read 24.4%.
Under “relative binding score”, `V76A` is recorded as -1.27%.
`T106A`: “relative binding score” -2.04%.
`E128D`: “relative binding score” 44.3%.
Under “relative binding score”, `M68S` is recorded as -0.446%.
Under “relative binding score”, `V43A` is recorded as 0.574%.
Under “relative binding score”, `T119M` is recorded as 4.82%.
`T173Q`: “relative binding score” -0.824%.

Sample 3
Target: Sal-like protein 4, full length isoform A (SALL4, Homo sapiens, UniProt Q9UJQ4, residues 1-1053)
Chain of UniProt Q9UJQ4 (whole entry, looked up): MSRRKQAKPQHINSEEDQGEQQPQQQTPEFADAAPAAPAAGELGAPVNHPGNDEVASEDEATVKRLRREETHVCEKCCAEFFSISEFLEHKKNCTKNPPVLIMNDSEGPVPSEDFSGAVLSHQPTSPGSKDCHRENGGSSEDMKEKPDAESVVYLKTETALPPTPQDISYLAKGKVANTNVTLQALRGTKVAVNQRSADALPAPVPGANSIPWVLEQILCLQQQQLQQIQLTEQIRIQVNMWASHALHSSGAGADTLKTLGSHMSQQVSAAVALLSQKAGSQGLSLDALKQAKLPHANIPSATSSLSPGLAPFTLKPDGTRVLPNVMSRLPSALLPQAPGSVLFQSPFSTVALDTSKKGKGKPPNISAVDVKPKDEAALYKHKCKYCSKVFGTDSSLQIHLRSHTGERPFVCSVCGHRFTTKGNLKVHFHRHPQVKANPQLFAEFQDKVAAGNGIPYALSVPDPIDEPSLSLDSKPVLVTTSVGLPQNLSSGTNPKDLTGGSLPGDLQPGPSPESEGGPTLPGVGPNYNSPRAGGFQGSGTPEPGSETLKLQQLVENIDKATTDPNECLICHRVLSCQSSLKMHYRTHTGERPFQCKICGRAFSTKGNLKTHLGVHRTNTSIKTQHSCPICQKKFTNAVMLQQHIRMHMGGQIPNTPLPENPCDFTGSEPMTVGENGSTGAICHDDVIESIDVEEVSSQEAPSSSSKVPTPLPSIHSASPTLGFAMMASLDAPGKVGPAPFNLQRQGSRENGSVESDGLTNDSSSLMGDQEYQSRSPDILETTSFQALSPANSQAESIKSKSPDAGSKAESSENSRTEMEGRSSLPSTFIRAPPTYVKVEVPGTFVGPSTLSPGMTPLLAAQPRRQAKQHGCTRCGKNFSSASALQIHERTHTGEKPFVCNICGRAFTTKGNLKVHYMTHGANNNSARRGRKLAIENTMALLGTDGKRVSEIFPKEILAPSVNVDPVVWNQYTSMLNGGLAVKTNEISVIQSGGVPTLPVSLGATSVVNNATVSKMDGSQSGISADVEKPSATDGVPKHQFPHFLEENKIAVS
Method: universal PBM
Form: double-stranded DNA, one strand shown
Matrix: in vitro
Tested at: 600 nM
Notes: 8-mer, flanks averaged, mean of replicates
Direction: higher = stronger binding
`TGATAACA` has an E-score of 0.299.
For `CACGGAAG`, the E-score was -0.256.
For `GGCTAACC`, the E-score was -0.258.
`CTTACGCC` has an E-score of -0.0126.
With `TGTACCAA` the E-score was 0.00519.
`TGGTTACA` has an E-score of 0.0694.
With `CACACCTA` the E-score was -0.00722.
For `CACACCGA`, the E-score was -0.0976.
`AGCCGGTC` has an E-score of -0.292.
`ACAATAAG` gave an E-score of 0.252.
With `TTGTAAAA` the E-score was 0.27.
With `CGCCGGCG` the E-score was -0.222.
The E-score of `GTCAGATA` is reported as 0.106.
The E-score of `ATAGGGAT` is reported as -0.0292.
`ACCAGTGA` has an E-score of -0.0242.
The E-score of `TGAGAGAA` is reported as 0.104.
With `TCGTGAAA` the E-score was 0.0357.
`ATTTAAAG` gave an E-score of 0.309.
`GCTCGTCC` has an E-score of -0.168.
For `ACTGTAGG`, the E-score was -0.0375.
With `GGGGGACA` the E-score was -0.317.
For `AAAAGGAT`, the E-score was 0.207.
`CCTTAAAG` has an E-score of 0.0195.
The E-score of `AGGGGGTC` is reported as -0.268.
`AATAGGTA` gave an E-score of 0.322.

Sample 4
Target: CCND2, cyclin fold, Cln2 fusion (human)
Method: yeast growth competition, sequencing
Matrix: yeast
Notes: weak parent motif
Baseline: not given
Direction: higher = stronger binding
Starting sequence: WEE2 docking peptide (human); KELRQKLNFSYCE
`KELRQKLAFSYCE [N8A]`: “normalised enrichment score” 0.081.
Under “normalised enrichment score”, `KELRQKLNFSACE [Y11A]` is recorded as -0.172.
`KELRQKLNFSYCA [E13A]` — result for “normalised enrichment score”: -0.13.
For `KELRAKLNFSYCE [Q5A]`, “normalised enrichment score” read -0.0796.
Under “normalised enrichment score”, `KELRQALNFSYCE [K6A]` is recorded as 0.0779.
`KALRQKLNFSYCE [E2A]`: “normalised enrichment score” -0.0117.
For `KEARQKLNFSYCE [L3A]`, “normalised enrichment score” read -0.253.

Sample 5
Target: NFE2L3, bZIP domain (human)
Method: DHFR protein complementation
Matrix: yeast
Notes: single substitutions, most at no-binding floor
Baseline: wild-type JUN-FOS pair
Direction: higher = stronger binding
Starting sequence: JUN, bZIP domain (human); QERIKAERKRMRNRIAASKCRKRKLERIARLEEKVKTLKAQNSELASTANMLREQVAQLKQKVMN; partner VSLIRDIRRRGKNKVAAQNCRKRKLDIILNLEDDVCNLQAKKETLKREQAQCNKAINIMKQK
The binding fitness of `Q55M` is reported as -1.41 natural log.
With `A46D` the binding fitness was -1.51 natural log.
`R30H` has a binding fitness of -1.55 natural log.
The binding fitness of `K36V` is reported as -1.53 natural log.
`A46N` gave a binding fitness of -1.47 natural log.
`K36A` has a binding fitness of -1.47 natural log.
The binding fitness of `L31A` is reported as -1.49 natural log.
For `A46I`, the binding fitness was -1.51 natural log.
With `L38F` the binding fitness was -1.52 natural log.
`L52S` has a binding fitness of -1.58 natural log.
`L45N` gave a binding fitness of -1.43 natural log.
For `L52D`, the binding fitness was -1.56 natural log.
With `E44I` the binding fitness was -1.6 natural log.
The binding fitness of `M51A` is reported as -1.38 natural log.
With `R53P` the binding fitness was -1.53 natural log.
With `S47A` the binding fitness was -1.49 natural log.
For `E54K`, the binding fitness was -1.22 natural log.
For `I28W`, the binding fitness was -1.57 natural log.
The binding fitness of `K36I` is reported as -1.55 natural log.
With `M51W` the binding fitness was -1.53 natural log.
For `L31V`, the binding fitness was -1.43 natural log.

Sample 6
Target: Histone acetyltransferase KAT6A, winged helix 2, GST fusion (KAT6A, Homo sapiens, UniProt Q92794, residues 85-181)
Method: protein binding microarray
Form: double-stranded DNA, one strand shown
Matrix: in vitro
Tested at: not given
Notes: 8-mer, flanks averaged, mean of 2 arrays, mostly near background
Baseline: not given
Direction: higher = stronger binding
Target sequence (chain): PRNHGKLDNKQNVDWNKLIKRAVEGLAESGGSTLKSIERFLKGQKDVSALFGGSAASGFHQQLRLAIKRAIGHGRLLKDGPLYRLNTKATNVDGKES
`CTACTCGA` has an E-score of 0.0086.
`GATATAGA` gave an E-score of 0.0678.
`ACCGTTGG` gave an E-score of -0.117.
The E-score of `CTGAATAC` is reported as -0.0367.
With `ACCCACCG` the E-score was 0.161.
`GGCTCGCA` has an E-score of 0.0799.
With `ACAAGCTA` the E-score was -0.0906.
The E-score of `GAACAATA` is reported as 0.268.
`CCCGGCCG` gave an E-score of 0.228.
With `CGCCATCC` the E-score was 0.154.
`ATGTCAGC` has an E-score of -0.0257.
With `GTCGCGAA` the E-score was 0.0388.
For `GCCGAATA`, the E-score was -0.0271.
The E-score of `GCCATTAA` is reported as -0.00259.
For `CTACGAGC`, the E-score was -0.162.
For `GTACGGCA`, the E-score was 0.0733.
`AAGCGTCT` gave an E-score of -0.153.
For `TAGATGAA`, the E-score was 0.0993.
For `AACCCATC`, the E-score was -0.179.
`CAGGCCAA` gave an E-score of -0.126.
For `ACTATTCA`, the E-score was -0.0411.
`AGCGAGGC` has an E-score of 0.0949.

A few entries again (sample 5):
The binding fitness of `K36I` is reported as -1.55 natural log.
For `L52D`, the binding fitness was -1.56 natural log.
With `S47A` the binding fitness was -1.49 natural log.
`L45N` gave a binding fitness of -1.43 natural log.
The binding fitness of `L31A` is reported as -1.49 natural log.
With `A46D` the binding fitness was -1.51 natural log.
